{"data": "Measured values collected from several papers", "EGFR": "Epidermal growth factor receptor (EGFR, Homo sapiens, UniProt P00533)", "EGFR L858R/T790M": "Epidermal growth factor receptor (EGFR, Homo sapiens, UniProt P00533, L858R/T790M)", "EGFR L858R": "Epidermal growth factor receptor (EGFR, Homo sapiens, UniProt P00533, L858R)", "EGFR T790M": "Epidermal growth factor receptor (EGFR, Homo sapiens, UniProt P00533, T790M)", "EGFR C797S/L858R/T790M": "Epidermal growth factor receptor (EGFR, Homo sapiens, UniProt P00533, C797S/L858R/T790M)", "note": "Lines come from different studies, so protocols differ. ± gives the spread as reported."}
{"SMILES": "CN(C1COC1)C(C)(C)/C=C(\\C#N)C(=O)N1CCC[C@H]1Cn1nc(-c2ccc(Oc3ccccc3)cc2F)c2c(N)ncnc21", "target": "EGFR", "assay": "enzyme activity, inhibitor", "IC50 [nM]": "> 3000"}
{"SMILES": "C=CC(=O)Nc1cc(Nc2nccc(-c3c(-c4cccc(F)c4)n(C)c4ccccc34)n2)c(OC)cc1N(C)CCN(C)C", "target": "EGFR L858R/T790M", "assay": "enzyme activity, inhibitor", "IC50 [nM]": 5}
{"SMILES": "CSC(=S)N/N=C(\\C)c1ccc(S(=O)(=O)N2CCC(C)CC2)cc1", "target": "EGFR", "assay": "enzyme activity, inhibitor", "IC50 [nM]": 170}
{"SMILES": "CCCCCCCCCCCCCCOc1c(O)cc(C(=O)O[C@@H]2Cc3c(O)cc(O)cc3O[C@@H]2c2cc(O)c(O)c(O)c2)cc1O", "target": "EGFR L858R/T790M", "assay": "kinase activity, inhibitor, Z′-LYTE", "conditions": "with: 10 µM ATP", "IC50 [nM]": "33.33 ± 0.08"}
{"SMILES": "C#Cc1cccc(Nc2ncnc3cc(OC)c(OCCCN4CCOCC4)cc23)c1", "target": "EGFR L858R", "assay": "enzyme activity, inhibitor", "conditions": "30 min, L858R mutant, with: ATP 80.8 µM", "IC50 [nM]": 1.1}
{"SMILES": "Cc1nc(-c2ccc(NC(=O)c3cccs3)cc2Cl)no1", "target": "EGFR", "assay": "kinase activity, inhibitor, luminescence", "how to read": "limit value", "IC50 [nM]": "< 10000"}
{"SMILES": "Oc1ncnc2c1sc1sc3c(O)ncnc3c12", "target": "EGFR T790M", "assay": "kinase activity, HTRF", "IC50 [nM]": "7260 ± 320"}
{"SMILES": "O=c1[nH]c2ccccc2nc1/C=C/c1ccccc1Br", "target": "EGFR", "assay": "enzyme activity, inhibitor, TR-FRET", "IC50 [nM]": "> 100000"}
{"SMILES": "CCN1CCC2(CC1)C/C(=N\\NC(=O)Nc1ccccc1)c1ccccc1O2", "target": "EGFR", "assay": "enzyme activity, inhibitor", "IC50 [nM]": 132}
{"SMILES": "O=C1N=C(N2N=C(c3cccs3)CC2c2ccc(F)cc2)SC1=Cc1ccc(O)cc1 (stereo not drawn)", "target": "EGFR", "assay": "enzyme activity, inhibitor", "IC50 [nM]": 171}
{"SMILES": "C=CC(=O)N1CCC[C@@H](n2nc(-c3cccc(C(F)(F)F)c3)c3c(N)ncnc32)C1", "target": "EGFR L858R/T790M", "assay": "cell-free assay", "IC50 [nM]": 223}
{"SMILES": "Cc1ccc(S(=O)(=O)c2c(-c3ccccc3)c3c(C)c4cc(F)ccc4n3c3ccccc23)cc1", "target": "EGFR", "assay": "enzyme activity, inhibitor, ADP detection", "IC50 [nM]": 380}
{"SMILES": "Cc1cc(N2CCN(C(=O)CN3CCN(c4ccccc4)CC3)CC2)n2ncnc2n1", "target": "EGFR", "assay": "enzyme activity, inhibitor", "IC50 [nM]": 169}
{"SMILES": "N#Cc1ccc(O)c(-c2nc(NCCN3CCNCC3)c3ccccc3n2)c1", "target": "EGFR (Homo sapiens, UniProt P00533, C797S/del746-750/T790M)", "assay": "kinase activity, inhibitor, Kinase-Glo Plus", "conditions": "40 min, 30 °C, with: ATP 10 µM", "IC50 [nM]": "220 ± 2"}
{"SMILES": "Nc1ncnc2c1sc1sc3c(N)ncnc3c12", "target": "EGFR T790M", "assay": "kinase activity, HTRF", "IC50 [nM]": "5020 ± 190"}
{"SMILES": "CCCCCCCCCCCCOc1c(O)cc(C(=O)OC2Cc3c(O)cc(O)cc3OC2c2cc(O)c(O)c(O)c2)cc1O (stereo not drawn)", "target": "EGFR L858R/T790M", "assay": "kinase activity, inhibitor, Z′-LYTE", "conditions": "with: 10 µM ATP", "IC50 [nM]": "18.39 ± 0.09"}
{"SMILES": "CC[C@H](C(=O)N1CCCC[C@@H]1C(=O)O[C@H](CCc1ccc(OC)c(OC)c1)c1cccc(OCC(=O)NCCC(=O)N2CCN(CCCOc3cc4c(Nc5ccc(F)c(Cl)c5)ncnc4cc3OC)CC2)c1)c1cc(OC)c(OC)c(OC)c1", "target": "EGFR", "assay": "enzyme activity, inhibitor, TR-FRET", "IC50 [nM]": 0.29}
{"SMILES": "CC(C)(C)c1nc(-c2ccc(NC(=O)c3cccs3)cc2Cl)no1", "target": "EGFR", "assay": "enzyme activity, inhibitor, ATP luminescence", "IC50 [nM]": 16000}
{"SMILES": "C=CC(=O)Nc1cc(Nc2nccc(-c3c(-c4cccc(OC)c4)n(C)c4ccccc34)n2)c(OC)cc1N(C)CCN(C)C", "target": "EGFR L858R/T790M", "assay": "enzyme activity, inhibitor", "IC50 [nM]": 6}
{"SMILES": "N=c1c2sc3sc4c(=N)n(-c5ccccc5)c(=S)[nH]c4c3c2[nH]c(=S)n1-c1ccccc1", "target": "EGFR T790M", "assay": "kinase activity, HTRF", "IC50 [nM]": "17300 ± 690"}
{"SMILES": "COc1ccc2c(c1)c(C)c1c(-c3ccccc3)c(S(=O)(=O)c3ccc(C)cc3)c3ccccc3n12", "target": "EGFR", "assay": "enzyme activity, inhibitor, ADP detection", "IC50 [nM]": 440}
{"SMILES": "COCC1CN(C2CCN(c3cc(OC)c(Nc4ncc(Br)c(Nc5ccc6c(c5P(C)(C)=O)OCCO6)n4)cc3C)CC2)C1", "target": "EGFR L858R/T790M", "assay": "enzyme activity, inhibitor, TR-FRET", "IC50 [nM]": "< 1.5"}
{"SMILES": "N#Cc1cnc2cc(OCC3CCNCC3)c(F)cc2c1Nc1cc(F)c(OCc2cccc(Cl)n2)cc1Cl", "target": "EGFR", "assay": "enzyme activity, inhibitor", "IC50 [nM]": 4660}
{"SMILES": "C=CC(=O)N1CCC[C@@H](n2nc(-c3cnc4[nH]ccc4c3)c3c(N)ncnc32)C1", "target": "EGFR L858R/T790M", "assay": "cell-free assay", "IC50 [nM]": 2.7}
{"SMILES": "CSC(=NN=C(C)c1ccc(S(=O)(=O)N2CCC(C)CC2)cc1)N(C)C", "target": "EGFR", "assay": "enzyme activity, inhibitor", "IC50 [nM]": 250}
{"SMILES": "O=C(Nc1ccc(-c2noc(C3CC3)n2)c(Cl)c1)c1cccs1", "target": "EGFR", "assay": "enzyme activity, Kinase-Glo luminescence", "IC50 [nM]": "1980 ± 690"}
{"SMILES": "Cc1c(C(=O)NNC(=S)Nc2ccc(Cl)cc2)nnn1Cc1nc2ccccc2[nH]1", "target": "EGFR", "assay": "enzyme activity, inhibitor", "IC50 [nM]": 86}
{"SMILES": "CC(C)c1ccc(-c2cc(C(=O)N3CCN(C(=O)c4cc(-c5ccc(C(C)C)cc5)nc5ccccc45)CC3)c3ccccc3n2)cc1", "target": "EGFR C797S/L858R/T790M", "assay": "enzyme activity, inhibitor", "IC50 [nM]": "> 10000"}
{"SMILES": "CN1CCN(c2ccc(Nc3ncc(Cl)c(Nc4ccccc4NS(C)(=O)=O)n3)cc2)CC1", "target": "EGFR C797S/L858R/T790M", "assay": "enzyme activity, inhibitor, ELISA", "IC50 [nM]": 4.83}
{"SMILES": "Oc1ccc(Cl)cc1-c1nc(NCCN2CCNCC2)c2ccccc2n1", "target": "EGFR C797S/L858R/T790M", "assay": "enzyme activity, inhibitor, ATP luminescence", "IC50 [nM]": 277}
{"SMILES": "C=CC(=O)N1CCC[C@@H](n2nc(-c3ccccc3)c3c(N)ncnc32)C1", "target": "EGFR L858R", "assay": "enzyme activity, inhibitor", "conditions": "with preincubation", "IC50 [nM]": 11}
{"SMILES": "CCOC(=O)/C(=N\\Nc1ccc(S(=O)(=O)Nc2ncccn2)cc1)C(=O)c1ccccc1", "target": "EGFR T790M", "assay": "enzyme activity, inhibitor, TR-FRET", "IC50 [nM]": 115}
{"SMILES": "O=C(O[C@@H]1Cc2c(O)cc(O)cc2O[C@@H]1c1cc(O)c(O)c(O)c1)c1cc(O)c(O)c(O)c1", "target": "EGFR", "assay": "kinase activity, inhibitor, Z′-LYTE", "conditions": "with: 10 µM ATP", "IC50 [nM]": "115.2 ± 0.07"}
{"SMILES": "COc1ccc(C=C2SC(N3N=C(c4cccs4)CC3c3ccc(F)cc3)=NC2=O)cc1 (stereo not drawn)", "target": "EGFR", "assay": "enzyme activity, inhibitor", "IC50 [nM]": 305}
{"SMILES": "CN1CCN(c2ccc(Nc3ncc(Cl)c(Nc4ccccc4NS(=O)(=O)C4CC4)n3)cc2)CC1", "target": "EGFR C797S/L858R/T790M", "assay": "enzyme activity, inhibitor, ELISA", "IC50 [nM]": 1.37}
{"SMILES": "CCCCCCCCCCOc1c(O)cc(C(=O)OC2Cc3c(O)cc(O)cc3OC2c2cc(O)c(O)c(O)c2)cc1O (stereo not drawn)", "target": "EGFR", "assay": "kinase activity, inhibitor, Z′-LYTE", "conditions": "with: 10 µM ATP", "IC50 [nM]": "169.1 ± 0.15"}
{"note": "For quick reference, copied from above:"}
{"SMILES": "Cc1cc(N2CCN(C(=O)CN3CCN(c4ccccc4)CC3)CC2)n2ncnc2n1", "target": "EGFR", "assay": "enzyme activity, inhibitor", "IC50 [nM]": 169}
{"SMILES": "O=c1[nH]c2ccccc2nc1/C=C/c1ccccc1Br", "target": "EGFR", "assay": "enzyme activity, inhibitor, TR-FRET", "IC50 [nM]": "> 100000"}
{"SMILES": "CN(C1COC1)C(C)(C)/C=C(\\C#N)C(=O)N1CCC[C@H]1Cn1nc(-c2ccc(Oc3ccccc3)cc2F)c2c(N)ncnc21", "target": "EGFR", "assay": "enzyme activity, inhibitor", "IC50 [nM]": "> 3000"}
{"SMILES": "CSC(=NN=C(C)c1ccc(S(=O)(=O)N2CCC(C)CC2)cc1)N(C)C", "target": "EGFR", "assay": "enzyme activity, inhibitor", "IC50 [nM]": 250}
{"SMILES": "C#Cc1cccc(Nc2ncnc3cc(OC)c(OCCCN4CCOCC4)cc23)c1", "target": "EGFR L858R", "assay": "enzyme activity, inhibitor", "conditions": "30 min, L858R mutant, with: ATP 80.8 µM", "IC50 [nM]": 1.1}
{"SMILES": "Nc1ncnc2c1sc1sc3c(N)ncnc3c12", "target": "EGFR T790M", "assay": "kinase activity, HTRF", "IC50 [nM]": "5020 ± 190"}
